Assay results from different studies.
A part holds a random share of what one study measured. ± marks the error that the study gave.
Chain of UniProt O75914 (whole entry, looked up): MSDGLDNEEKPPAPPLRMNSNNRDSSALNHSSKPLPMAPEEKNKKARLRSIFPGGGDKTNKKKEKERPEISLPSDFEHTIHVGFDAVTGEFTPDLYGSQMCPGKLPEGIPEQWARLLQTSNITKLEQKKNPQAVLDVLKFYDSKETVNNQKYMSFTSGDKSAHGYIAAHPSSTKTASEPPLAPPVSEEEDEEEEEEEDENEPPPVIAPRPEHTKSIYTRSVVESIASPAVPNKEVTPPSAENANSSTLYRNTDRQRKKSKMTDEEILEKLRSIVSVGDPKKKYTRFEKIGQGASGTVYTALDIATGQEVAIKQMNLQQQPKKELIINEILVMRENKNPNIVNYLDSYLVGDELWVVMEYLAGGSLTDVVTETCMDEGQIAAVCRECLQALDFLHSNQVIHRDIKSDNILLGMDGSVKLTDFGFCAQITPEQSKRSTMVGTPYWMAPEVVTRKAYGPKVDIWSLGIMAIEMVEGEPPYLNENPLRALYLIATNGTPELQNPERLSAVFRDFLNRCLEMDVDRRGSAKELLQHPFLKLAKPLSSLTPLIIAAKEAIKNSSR
Chain of UniProt P06493 (whole entry, looked up): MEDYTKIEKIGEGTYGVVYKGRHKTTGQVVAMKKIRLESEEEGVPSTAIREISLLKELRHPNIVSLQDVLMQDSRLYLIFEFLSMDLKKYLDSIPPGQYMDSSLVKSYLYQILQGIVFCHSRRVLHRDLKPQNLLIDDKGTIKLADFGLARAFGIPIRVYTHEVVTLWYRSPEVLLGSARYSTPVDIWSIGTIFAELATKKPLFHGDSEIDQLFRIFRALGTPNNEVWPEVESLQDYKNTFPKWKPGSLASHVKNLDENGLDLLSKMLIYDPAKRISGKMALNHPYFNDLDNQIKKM
Chain of UniProt P35968 (whole entry, looked up): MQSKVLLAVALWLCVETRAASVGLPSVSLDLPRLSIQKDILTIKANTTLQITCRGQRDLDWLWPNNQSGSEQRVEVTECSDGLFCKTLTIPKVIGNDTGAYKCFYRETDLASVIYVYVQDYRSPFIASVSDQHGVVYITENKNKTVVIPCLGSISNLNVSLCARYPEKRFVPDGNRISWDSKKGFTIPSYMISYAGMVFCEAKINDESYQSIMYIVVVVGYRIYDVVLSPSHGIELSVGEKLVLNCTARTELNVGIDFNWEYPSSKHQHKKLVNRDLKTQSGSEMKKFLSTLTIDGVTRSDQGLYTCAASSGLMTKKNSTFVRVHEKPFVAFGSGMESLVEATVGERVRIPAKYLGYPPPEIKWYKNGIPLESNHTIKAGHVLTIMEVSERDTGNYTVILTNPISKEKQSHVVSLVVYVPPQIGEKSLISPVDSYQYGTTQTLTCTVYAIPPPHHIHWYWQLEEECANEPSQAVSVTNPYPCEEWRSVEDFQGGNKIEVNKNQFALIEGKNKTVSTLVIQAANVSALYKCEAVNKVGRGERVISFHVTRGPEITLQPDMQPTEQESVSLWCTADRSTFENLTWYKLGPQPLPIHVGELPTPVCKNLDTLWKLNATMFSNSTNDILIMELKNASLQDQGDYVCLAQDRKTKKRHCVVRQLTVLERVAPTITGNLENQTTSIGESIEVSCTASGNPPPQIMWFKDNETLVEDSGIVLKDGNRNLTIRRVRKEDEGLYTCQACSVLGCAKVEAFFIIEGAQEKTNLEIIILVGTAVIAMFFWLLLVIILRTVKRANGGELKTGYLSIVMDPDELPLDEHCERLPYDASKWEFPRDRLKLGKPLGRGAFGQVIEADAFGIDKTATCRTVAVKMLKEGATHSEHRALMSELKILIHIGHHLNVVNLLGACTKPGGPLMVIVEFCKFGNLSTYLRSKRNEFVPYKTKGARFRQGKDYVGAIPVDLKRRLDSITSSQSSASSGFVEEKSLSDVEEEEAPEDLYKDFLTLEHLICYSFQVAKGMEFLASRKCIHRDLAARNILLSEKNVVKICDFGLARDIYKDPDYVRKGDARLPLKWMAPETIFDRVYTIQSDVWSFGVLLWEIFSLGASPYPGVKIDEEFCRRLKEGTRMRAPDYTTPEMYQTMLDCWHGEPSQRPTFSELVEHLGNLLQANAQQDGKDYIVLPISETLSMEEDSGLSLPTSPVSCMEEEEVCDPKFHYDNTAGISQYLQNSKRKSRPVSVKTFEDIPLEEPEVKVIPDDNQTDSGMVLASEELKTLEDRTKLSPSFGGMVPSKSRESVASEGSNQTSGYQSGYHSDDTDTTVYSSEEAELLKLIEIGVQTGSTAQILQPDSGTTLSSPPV
Chain of UniProt Q15759 (whole entry, looked up): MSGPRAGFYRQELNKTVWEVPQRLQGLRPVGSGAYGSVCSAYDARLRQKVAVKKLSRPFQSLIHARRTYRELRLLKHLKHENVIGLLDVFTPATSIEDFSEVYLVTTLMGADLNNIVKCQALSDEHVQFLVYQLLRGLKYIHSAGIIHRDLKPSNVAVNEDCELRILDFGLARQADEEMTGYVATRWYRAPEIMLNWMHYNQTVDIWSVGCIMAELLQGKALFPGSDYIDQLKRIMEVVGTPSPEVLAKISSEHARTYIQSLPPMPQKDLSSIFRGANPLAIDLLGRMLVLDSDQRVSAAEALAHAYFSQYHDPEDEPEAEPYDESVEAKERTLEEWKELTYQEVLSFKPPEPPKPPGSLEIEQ
Chain of UniProt Q8N4C8 (whole entry, looked up): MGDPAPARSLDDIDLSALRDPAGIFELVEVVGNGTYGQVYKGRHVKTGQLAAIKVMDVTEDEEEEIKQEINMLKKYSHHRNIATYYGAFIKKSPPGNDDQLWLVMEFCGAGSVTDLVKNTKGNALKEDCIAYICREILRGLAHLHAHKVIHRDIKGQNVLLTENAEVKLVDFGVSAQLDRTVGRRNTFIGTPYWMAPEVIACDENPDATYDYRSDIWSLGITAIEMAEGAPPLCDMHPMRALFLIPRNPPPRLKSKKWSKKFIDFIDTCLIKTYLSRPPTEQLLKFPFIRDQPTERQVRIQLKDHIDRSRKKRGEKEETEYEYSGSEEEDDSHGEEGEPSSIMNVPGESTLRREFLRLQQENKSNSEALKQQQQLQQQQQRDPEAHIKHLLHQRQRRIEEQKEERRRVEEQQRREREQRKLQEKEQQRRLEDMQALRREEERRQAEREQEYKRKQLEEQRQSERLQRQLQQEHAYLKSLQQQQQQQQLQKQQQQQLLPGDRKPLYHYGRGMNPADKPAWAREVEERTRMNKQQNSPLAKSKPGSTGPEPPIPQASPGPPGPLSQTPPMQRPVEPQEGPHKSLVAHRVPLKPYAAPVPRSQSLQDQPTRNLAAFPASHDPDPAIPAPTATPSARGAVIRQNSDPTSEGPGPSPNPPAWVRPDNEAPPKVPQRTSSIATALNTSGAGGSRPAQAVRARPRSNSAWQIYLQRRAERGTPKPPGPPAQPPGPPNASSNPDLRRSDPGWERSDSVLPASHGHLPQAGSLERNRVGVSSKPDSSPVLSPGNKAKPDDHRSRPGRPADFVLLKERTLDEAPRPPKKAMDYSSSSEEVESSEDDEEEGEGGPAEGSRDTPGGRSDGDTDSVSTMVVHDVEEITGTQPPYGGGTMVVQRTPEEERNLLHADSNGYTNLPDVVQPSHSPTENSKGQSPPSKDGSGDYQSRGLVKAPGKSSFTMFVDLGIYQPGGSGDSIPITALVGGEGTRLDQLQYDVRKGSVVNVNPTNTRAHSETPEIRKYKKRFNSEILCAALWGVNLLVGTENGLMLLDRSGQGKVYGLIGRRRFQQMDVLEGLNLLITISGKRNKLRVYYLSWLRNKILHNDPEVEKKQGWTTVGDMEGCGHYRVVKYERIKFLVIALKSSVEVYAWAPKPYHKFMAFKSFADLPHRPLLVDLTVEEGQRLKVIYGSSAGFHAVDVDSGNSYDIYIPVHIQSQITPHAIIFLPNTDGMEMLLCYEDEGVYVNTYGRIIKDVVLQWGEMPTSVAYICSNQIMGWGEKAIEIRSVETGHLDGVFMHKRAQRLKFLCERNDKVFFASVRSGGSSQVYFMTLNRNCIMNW
Chain of UniProt Q6P2M8 (whole entry, looked up): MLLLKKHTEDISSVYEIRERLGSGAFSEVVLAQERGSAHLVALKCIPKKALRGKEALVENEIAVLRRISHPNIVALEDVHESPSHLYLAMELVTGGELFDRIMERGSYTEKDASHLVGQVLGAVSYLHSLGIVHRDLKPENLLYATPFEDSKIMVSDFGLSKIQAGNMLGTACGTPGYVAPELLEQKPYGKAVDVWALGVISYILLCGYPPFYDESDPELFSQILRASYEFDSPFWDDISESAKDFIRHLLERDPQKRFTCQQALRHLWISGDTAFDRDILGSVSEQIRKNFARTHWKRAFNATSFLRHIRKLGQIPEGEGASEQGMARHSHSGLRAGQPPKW
Chain of UniProt Q9HAZ1 (whole entry, looked up): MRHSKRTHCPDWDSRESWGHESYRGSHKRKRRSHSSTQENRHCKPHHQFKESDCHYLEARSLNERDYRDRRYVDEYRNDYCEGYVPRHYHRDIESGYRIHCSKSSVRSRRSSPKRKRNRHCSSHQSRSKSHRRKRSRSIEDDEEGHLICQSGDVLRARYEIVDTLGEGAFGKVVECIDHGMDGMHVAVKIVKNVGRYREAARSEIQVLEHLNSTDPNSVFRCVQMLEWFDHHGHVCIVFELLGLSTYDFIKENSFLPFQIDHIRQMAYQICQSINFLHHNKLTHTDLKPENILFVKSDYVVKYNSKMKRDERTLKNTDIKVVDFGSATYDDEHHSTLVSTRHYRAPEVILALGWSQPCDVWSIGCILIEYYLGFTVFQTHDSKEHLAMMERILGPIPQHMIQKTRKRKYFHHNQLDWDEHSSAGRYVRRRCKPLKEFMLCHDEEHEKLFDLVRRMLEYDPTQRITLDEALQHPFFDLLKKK

Sample 1
Cell line: mouse MPNST tumor cells
Method: high-content nuclear imaging
Item: cell number
Tested at: 10 µM
Time: 12 h
Setting: mean of 2 replicates
Relative to: plate mean
Reading: higher = more cells
Quantity: nuclei count
CCN(c1ccccc1)c1cc(=NC)n(C)c(C)n1: -1.04 z-score
O=C(NCCS(=O)(=O)c1ccc(C(F)(F)F)cn1)c1ccc(Cl)cc1: 1.72 z-score
Fc1ccc(Nc2nc(-c3ccccc3)cs2)cc1: -1.54 z-score
Cc1c(C(=O)NN2CCS(=O)(=O)CC2)nn(-c2ccc(Cl)cc2Cl)c1-c1ccc(C#CCCC#N)cc1: -0.802 z-score
CCN[C@H]1C[C@H](C)S(=O)(=O)c2sc(S(N)(=O)=O)cc21: 1.32 z-score

Sample 2
Compound: CCCC(=O)Oc1ccc2[nH]c(C(=O)c3cc4ccccc4[nH]3)cc2c1
Observed: enzyme activity
Mode: inhibitor
Tested at: 0.5 µM
Relative to: control
Quantity: remaining activity
Serine/threonine-protein kinase MRCK beta (CDC42BPB, Homo sapiens, UniProt Q9Y5S2): 99.5%
Dual specificity protein kinase CLK4 (CLK4, Homo sapiens, UniProt Q9HAZ1): 90.2%
G protein-coupled receptor kinase 4 (GRK4, Homo sapiens, UniProt P32298): 93.7%
cGMP-dependent protein kinase 2 (PRKG2, Homo sapiens, UniProt Q13237): 97.6%
Cyclin-dependent kinase 1, with cyclin A (CDK1, Homo sapiens, UniProt P06493): 87.3%
Serine/threonine-protein kinase tousled-like 2 (TLK2, Homo sapiens, UniProt Q86UE8): 97.1%
Misshapen-like kinase 1 (MINK1, Homo sapiens, UniProt Q8N4C8): 93.8%
Mitogen-activated protein kinase 11 (MAPK11, Homo sapiens, UniProt Q15759): 87.7%
Serine/threonine-protein kinase PAK 3 (PAK3, Homo sapiens, UniProt O75914): 102%
Ribosomal protein S6 kinase alpha-4 (RPS6KA4, Homo sapiens, UniProt O75676): 99.1%
Mitogen-activated protein kinase 1 (MAPK1, Homo sapiens, UniProt P28482): 105%
Cyclin-dependent kinase 9, with cyclin K (CDK9, Homo sapiens, UniProt P50750): 104%
Vascular endothelial growth factor receptor 2 (KDR, Homo sapiens, UniProt P35968): 90.4%
Serine/threonine-protein kinase DCLK2 (DCLK2, Homo sapiens, UniProt Q8N568): 89.2%
Calcium/calmodulin-dependent protein kinase type 1B (PNCK, Homo sapiens, UniProt Q6P2M8): 99.4%

Sample 3
Host: mouse
Sample: microsomes or S9
Tested at: 2 µM
Time: 0.5 h
Quantity: remaining compound
CCOC(=O)C1=C(n2[nH]c3nc(C)cc(COC)c3c2=N)CCC1: 44.5%
Cn1cc(C2NC(N)=Nc3nc4ccccc4n32)c2cc(F)ccc21 (centres unmarked): 27.6%
Cc1cc(C)n(-c2nc3cc(Cl)c(Cl)cc3nc2NCc2ccncc2)n1: 94.6%
CC(C)CCn1cnc2c(cnn2-c2ccc(Cl)cc2)c1=O: < 1%
CCOC(=O)N1CCN(C(=O)C2CCC(CNS(=O)(=O)CC)CC2)CC1 (centres unmarked): 67.7%
COc1ccc(OCc2nc3c4c(-c5ccccc5)c(-c5ccccc5)n(CCO)c4ncn3n2)cc1: 1.29%

Sample 4
SMILES: COc1cc(C(=O)N2CCC(N3CCN(C)CC3)CC2)ccc1Nc1ncc2c(n1)N(C)c1ccccc1C(=O)N2C
Observed: kinase activity
Quantity: remaining activity
BRSK1; 1 µM: 83 ± 6%
MNK1; 1 µM: 86 ± 4%
TTK; 1 µM: 84 ± 9%
DYRK3; 10 µM: 96 ± 1%
YES1; 1 µM: 86 ± 8%
PKCa; 10 µM: 97 ± 4%

Excerpt of the above (sample 4):
YES1; 1 µM: 86 ± 8%
BRSK1; 1 µM: 83 ± 6%
PKCa; 10 µM: 97 ± 4%
DYRK3; 10 µM: 96 ± 1%
